Experimental data collected from several papers.
Parts stem from different laboratories: compare values within a part only.

Study 1 — technique: RNA Bind-n-Seq; molecule type: RNA; sample: in vitro; tested at: 200 nM; setting: whole 134-nt RNA, ends assumed; with: 150 mM LiCl; relative to: input library; direction: higher = stronger binding; each molecule: 7-deaza-guanosine replaces G
Target: Fragile X messenger ribonucleoprotein 1, C-terminal low-complexity region (Fmr1, Mus musculus, UniProt P35922)
All sequences stand within: GGGAGUUCUACAGUCCGACGAUC … UGGAAUUCUCGGGUGUCAAGG
Sequence	log2 enrichment
ACCAUGCAGGUGGGCAUCUUUGGGAAGUGGAGCAAGGGGGGGAUAGGGAGGGGGGUAACACUUUGGGAACAGGUGGUCCCAGGUCGUUUC	1.35
AGUCCUGUGCUACACAUCGUAUGUACCGAAUCGGGUUUUGGGUUUUGGGUUUUGGGGAAAGUAUUAUGUUACGCCGUUCGGAUCUGCACU	-1.17
GCAGGAAGUAAAAACAAAUGGAAAUGCUUCGGAUAGUGGCAGGGGUGGGGGUUGCUAAGGAAAGGGGGGGAUGGGAGUGGGUAAAGAGUU	1.61
ACCAUGCAGGUGGGCAUCUUUGGGAAGUGGGGCAAGGGGGGGAUAGGGAGGGGGGUAACACUUUGGGAACAAAAGGUCCCAGGUCGUUUC	1.56
AGUCCUGUGCUACACAUCGUAUGUACCGAAUCGGGAAAAAGGGAAAAAAAGGGUGGGAAAGUAUUAUGUUACGCCGUUCGGAUCUGCACU	-1.13
UGGCCCUGGUGGCAUGCGGGGAGGAAGAGGUGGCCUCAUGGAUCGUGGUGCUCCCGGUGGAAUGUUCAGAGGUGGCCGUGGUGGAGACAG	1.4
CCUGUGCUACACAUCGUAUGUACCGAAUCGGGGAAAAAAAGGAAAAAAAGGGAAAAAAAGGAAAGUAUUAUGUUACGCCGUUCGGAUCUG	0.053
GUCCUGUGCUACACAUCGUAUGUACCGAAUCGGGGAAAAAGGGGAAAAAGGGGUGGGGAAAGUAUUAUGUUACGCCGUUCGGAUCUGCAC	-0.717
UCCUGUGCUACACAUCGUAUGUACCGAAUCGGGGUGGGGUUUUUGGGGAAAAAAAGGGGAAAGUAUUAUGUUACGCCGUUCGGAUCUGCA	-1.6
CUGUGCUACACAUCGUAUGUACCGAAUCGGGUUUUUUUGGGUUUUUUUGGGGUUUUUUUGGAAAGUAUUAUGUUACGCCGUUCGGAUCUG	1.08
AAGUCCUGUGCUACACAUCGUAUGUACCGAAUCGGCCCCGGGGCCCCGGGCCCCGGGAAAGUAUUAUGUUACGCCGUUCGGAUCUGCACU	-2.5

Study 2 — technique: protein-binding microarray; molecule type: double-stranded DNA, one strand shown; sample: in vitro; tested at: 2540 nM top; setting: 60-bp whole probe; with: salmon DNA 0.4 mg/ml; relative to: random background probes; direction: higher = stronger binding; all sequences stand within: GCCTAGCAC … GTCTTGATTCGCTTGACGCTGCTG
Target: Interferon regulatory factor 3, full length, phosphomimetic (IRF3, Homo sapiens, UniProt Q14653, residues 1-427, S386D/S396D/S398D/S402D/T404D/S405D)
UniProt Q14653, sequence (whole entry, unmodified, looked up): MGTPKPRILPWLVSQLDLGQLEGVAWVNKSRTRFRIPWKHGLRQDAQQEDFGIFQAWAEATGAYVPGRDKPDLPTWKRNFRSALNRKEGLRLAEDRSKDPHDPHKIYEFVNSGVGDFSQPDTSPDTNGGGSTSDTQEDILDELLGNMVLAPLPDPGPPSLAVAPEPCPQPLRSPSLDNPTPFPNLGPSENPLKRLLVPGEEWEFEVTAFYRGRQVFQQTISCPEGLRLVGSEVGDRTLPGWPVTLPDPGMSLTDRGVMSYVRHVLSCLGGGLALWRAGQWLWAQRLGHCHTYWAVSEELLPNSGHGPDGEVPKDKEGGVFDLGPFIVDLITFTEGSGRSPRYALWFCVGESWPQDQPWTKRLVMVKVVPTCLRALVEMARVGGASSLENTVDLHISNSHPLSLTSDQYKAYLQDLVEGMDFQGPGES
Sequence	fitted relative affinity [z-score]
TCATTTATGTCCTGTCTAACTGTGCTA	1.4
TACTTTCTACTTCTCTTTTTGTGCTAG	3.28
GACGGTTTCCTTCTCCAGACGTGCTAG	10.1
GACGAACTGCTTATCCTGACGTGCTAG	-0.0852
GACGGTTTGGACACTGGGGACGTGCTA	-0.123
GACGATATCAGGATCGAGACGTGCTAG	0.608
GACGAACTCAGTTTCGAGACGTGCTAG	2.35
GCTGACACTAACACAGTGGTGTGCTAG	-0.458
GACGATTCCAGTTTCGAGAGGTGCTAG	2.51
GACGGTCCCCTTATCCTGACGTGCTAG	1.39
TTAGGTCTCGGTCTCGCTTAGTGCTAG	0.78
TTAGGTTTCCTTTACCTTTAGTGCTAG	6.98
TCATTTTTGCATTGCTTACTGTGCTAG	1.33
AGGATCCAGCCTGCAACCTCGTGCTAG	0.552
GACGATTTCGGGTATCGAGGCGTGCTA	1.73
GTAGATATCGGGTTTCGATTAGTGCTA	2.18
TTAGAACTGAGTCTCGATCAGTGCTAG	-0.466
TTAGGTTTTGACACTGGGTTAGTGCTA	-0.324
GACGGTCTCTGTCTCGGGACGTGCTAG	0.714
TACTGTGTGCATCTATCTTAGTGCTAG	0.183
TACGAACTGGGGACTGGAGACGTGCTA	-0.684
ATCGTAAGCAAAAATGATTGGTGCTAG	-0.303
TCATTTATGCTTTCTTTAACTGTGCTA	1.7
CCCACTTTCAGTTCTCCCTTGTGCTAG	4.69
TCAAGTTTATTTATTTTACTGTGCTAG	0.0753

Study 3 — technique: protein binding microarray; molecule type: double-stranded DNA, one strand shown; sample: in vitro; tested at: not given; relative to: not given; direction: higher = stronger binding
Target: Histone acetyltransferase KAT6A, winged helix 1, GST fusion (KAT6A, Homo sapiens, UniProt Q92794, residues 1-85)
Setting: 8-mer, flanks averaged, mean of 2 arrays, mostly near background
Target sequence (chain): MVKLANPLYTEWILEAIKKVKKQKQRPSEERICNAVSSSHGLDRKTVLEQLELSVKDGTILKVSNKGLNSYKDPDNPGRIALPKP
Sequence	E-score
AACGCAAA	0.0821
CACTCTAC	-0.187
AAGGCTAT	-0.0908
GCTTTGGA	0.0785
CGGCACAG	0.261
AGCCCACT	-0.186
TAATACAA	-0.171
TACTGCAA	-0.124
ACGCGCGC	0.452
CGAATACG	0.0909
GGCTTTTA	-0.000695
CAATTTCA	-0.177
AAAGATTT	-0.031
CAGTCTCC	-0.071
AGATGACC	0.0212
CGCTATGC	0.317
AACTACAA	-0.108
CTCCCTCC	-0.173
ATTCCGTC	0.148
TAAGGGAA	-0.187
CGCGTCTA	0.312
GCTACACA	-0.0362
ATTCAAGC	-0.0591
CATGAATC	-0.0544
ACAGTTTC	-0.158

Study 4 — technique: RNA Bind-n-Seq; molecule type: RNA; sample: in vitro; tested at: 365 nM; relative to: no-protein control; direction: higher = stronger binding
Target: RNA binding protein fox-1 homolog 2, RRM domain, GST-SBP tag (RBFOX2, Homo sapiens, UniProt O43251-10, residues 100-194)
Setting: natural RNA segment, single round, ends assumed
All sequences stand within: GGGAGUUCUACAGUCCGACGAUC … UGGAAUUCUCGGGUGCCAA
Target sequence (chain): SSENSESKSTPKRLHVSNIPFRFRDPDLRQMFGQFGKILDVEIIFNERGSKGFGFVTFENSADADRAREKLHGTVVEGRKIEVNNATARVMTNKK
Sequence	RBNS enrichment (R)
ACCUUAAUGCAAAAUCAAAAUUAUAAAAUAAAAUCAUUGACAUUGAUGGGUUUUUUUGCAUAUAAGCUAUAGGCCUCCCGCUUUAUUUCAUGAGGAGCCCAUAGGCAGGU	0.705
GUUGUAAAGAAAAACAAAAACAAAAAAACAAAAACAAAAACAAAAAAAACAAAAUGGAAAAAGUCACAAAAAAGUUUGUAUAAAGACGUAUUUUUGUACUACAUGGGGAC	1.71
GAAGACAUCUAGAAACAUUACACCACACACACCGUCAUCACAUUUUCACAUGCUCAAUUGAUAUUUUUUGCUGCUUCCUCGGCCCAGGGAGAAAGCAUGUCAGGACAGAG	0.75
GUCCACGUUCCAGCCGAGUCACUGCCUGACCGGCUCCAUGGCAGCUCCCCAUCUUCCCUAGAGGCUGCCUGCGCAUCUGGAGCCUGCGCUCCGGCUCAGCGACCUUUCCU	0.439
AGACAUUGAUAUUGACUAUUUAGAGAACCGUUGUUAAUUUUAAAACUAGCAAUCUAUAAAGUGCACCAGGUCAACUUGAAUAAAAACACUAUGACAGACAGGUUUGCCAG	0.603
AUCUCUCCUCCACCUUGACAAAAGCAGAUUAUAGUAUACAAGGUAGGAAUUCCUGUCCUAUUUGAGAUGAACUAUAUCCUGUACCUCUGUGCUCUGUGUCUGCAUGAAGG	2.44
UAAUAUGAACCAACAAUCUGGAGCACACCGAAGGGCAAUCUAAAUUGUGGCUUGAAGGACUGCACUAAAACCCACUAAAAAGAUGCGAAAACCUGAUGAGGGCAAACCAG	0.405
UUUUCUUGCCCCAGUCAGGCUCAAGCCCUGUGGUUGUAGGAAUAAAGCCUGUGAUCUCAAGAAGUGGUGACUUGUUUUCUUAGGUAUCUGUGCCCUGAGGCUGUAUAUUC	0.973
GCAGGUGAGCUUUGCUUAUGUAGUUUGCUUUCACCAUAUAGACUGAGAGAAGAUUUCAGACUUCUUUUUCUCAGAAAGCAUGAAGAAUUUAUGAAGUAUGGAAAAGAAGC	8.39
ACACGAUGAUGUGGUCUGCUUGCUCUCUGCUUAGACAGGCUUUAAGACCAAUUGGAUUUUCAUGGAGGCCAGGACAGAGAGUGGUAAUUGAUGGCUUGUGUACAGACAAG	1.18
AUACUGCUCUACUGCACUUAGACUCUCCACUCACAGAUAAGUCUUGUCUGUUAGUAGUGCUGUAGAUUAAGUCUUUCCAAAGCACCUAGGCAGUGCACCUAUUCUGUAGU	0.303
UGCCACGUGCUGCUGCCGCCAGGAUAUGCGCCUUCCCACAGGUGCCCUGCCUGAGUUGUGUGCAUCCAGGGGCCUGGUGAGCCCCCAGGCUGGUGGCAUGGCCCCCCUGC	0.682
